Measurements collected from several papers.
Numbered parts are unrelated; each lists some results of a single study. Positions count from the first letter of the parent shown.

Sample 1 — target: CCND3, cyclin fold, Cln2 fusion (human); technique: yeast growth competition, sequencing; matrix: yeast; setting: weak parent motif; relative to: not given; direction: higher = stronger binding
Starting sequence: RBL2 docking peptide (human); STTRRRLFVENDS; partner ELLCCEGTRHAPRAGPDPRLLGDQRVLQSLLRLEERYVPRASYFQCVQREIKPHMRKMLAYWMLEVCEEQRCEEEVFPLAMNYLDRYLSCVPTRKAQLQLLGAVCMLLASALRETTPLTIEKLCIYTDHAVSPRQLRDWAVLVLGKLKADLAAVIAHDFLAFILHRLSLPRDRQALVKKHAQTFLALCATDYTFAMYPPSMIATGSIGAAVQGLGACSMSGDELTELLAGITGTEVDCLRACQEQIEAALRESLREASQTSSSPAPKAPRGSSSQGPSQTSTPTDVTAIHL
Change | normalised enrichment score
STTGRRLFVENDS [R4G] | 0.079
STTRRRFFVENDS [L7F] | 0.116
STTRRRLFVENDG [S13G] | 0.164
STTRSRLFVENDS [R5S] | 0.125
STTRRRLFTENDS [V9T] | 0.243
STTRRCLFVENDS [R6C] | 0.143
STTRRRLFVEADS [N11A] | 0.0232

Sample 2 — technique: RNA Bind-n-Seq; form: RNA; matrix: in vitro; concentration: 365 nM; relative to: no-protein control; direction: higher = stronger binding
Target: RNA binding protein fox-1 homolog 2, RRM domain, GST-SBP tag (RBFOX2, Homo sapiens, UniProt O43251-10, residues 100-194)
Setting: natural RNA segment, single round, ends assumed
Construct (chain): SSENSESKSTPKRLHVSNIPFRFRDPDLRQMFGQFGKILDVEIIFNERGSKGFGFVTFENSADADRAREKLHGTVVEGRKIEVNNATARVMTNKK
Oligonucleotide | RBNS enrichment (R)
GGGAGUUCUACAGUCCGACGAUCGUUCCAUUUCGUGCCGCUUUCCCCCUUCAAGAUGCCAUUUGGAGGGUAGGGGAUCUGCUUCCCACUGUGACUGGGCUAUGGGAUUCUGACUACCUUGCUUACAGAUUCAUUGGAAUUCUCGGGUGCCAA | 0.552
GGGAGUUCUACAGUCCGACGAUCCGUAUGUUCAUAUGGAUAAGACUAAGUCCAAAAAGGUGACUACAUCCAAAUUUAUAUUUCGGGGAAAUACCAUGAGAUAAUUAUAGCAUACUGGGCAUGUGUCCACACACUGGAAUUCUCGGGUGCCAA | 0.559
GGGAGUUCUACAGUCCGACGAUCGCCGCCUUCCUGUGCCAAAUUCAGUGGGGACUCAGUGCCCAGGCCCUGGCCACGAGCUUUGGCCUUGGUCUACCUGCCAGGCCAGGCAAAGCGCCUUUACACAGGCCUCGUGGAAUUCUCGGGUGCCAA | 0.338
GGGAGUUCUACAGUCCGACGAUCUGGGCCACGCCUGGGAGGGGCCCAGCUGGGGUUACUGGCCCCGCAUGAGCCUCGGCCAUCUCUCCCUCCUGCCCUCUGCUUGGGGGACUCAGGGCUCCAUUCUGGAGGGCUGGAAUUCUCGGGUGCCAA | 1.04
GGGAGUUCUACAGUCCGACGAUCCUAUGUCUGCUUACACAGCUUGGACAUGGCUGCUUUCCAUGAAGGAAAUAUAGGGGAGGUGGACUGUAAGGGAUAUAUAACCAGUGUGAAGAACUGCUUCAUAAAAUAUGUGGAAUUCUCGGGUGCCAA | 0.927
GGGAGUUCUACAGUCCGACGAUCUGCUCUGGCUCACGAGUAUUGGAGGACCUGAGCACCUCAGGCCGUGGGUCUGUGUGGGGUGUGUGGGUGUGGAUGUCUGCCUCGCCACAGGUGCCACAGAGGGGCAGGCGUGGAAUUCUCGGGUGCCAA | 0.836
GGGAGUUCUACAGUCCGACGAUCGACAGUUAUGGUACACACAACGAUAAAAGCCCUCCGCGUCCAGAUCGUCCUUCCAUGGCUGUAAUUAAGAUGGGGGAGCUUCGCUGAUCGUUGUGUAGUGAGCACCUUGUUGGAAUUCUCGGGUGCCAA | 0.594
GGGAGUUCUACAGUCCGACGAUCUUUGUCUCCAGUCUGGUGCCAGGCAGUAGAGUGGAAAAGGAGGCUAUUUUUUUAUUCUAUGUGCACACAUACAGUAUACAUAUAUAUUUAUAUCACAUUUUACUGAACCAUGGAAUUCUCGGGUGCCAA | 0.501
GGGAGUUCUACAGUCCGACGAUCUUAAAGUUUCAAAAAUCUGAAGAUUGUUUAUCUAGAUGUAAAUUUUUAUUAAAAAGUUGCACUUAUGAAAAAGCAAAAAAUUAGUCUGACAGAUGUUUGCUCCUGGUUUUUGGAAUUCUCGGGUGCCAA | 0.512
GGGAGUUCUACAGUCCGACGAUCUGGGGUCAUGGUUCAGCAGAGGUUACAUAGGAGCAAAUGGUUCUCAAUUUUCCAGUUUGAUUGAAGUGCAGAGAAAAAUCCCUUAGAUUGCAAAAUAAAAUAGUUGAACUUGGAAUUCUCGGGUGCCAA | 0.836
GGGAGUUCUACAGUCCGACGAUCAUAAUUGUGGAAGCAGAUUCAUUGCUAGUUUAGUUUCAUAUAUAAUAUAUACAGUAAUUGUAGGGUCAUACCUCAAAUGCUGGUAUCUUACUUGGCCAUGGGGUUGCUUGUGGAAUUCUCGGGUGCCAA | 1.04

Sample 3 — technique: protein binding microarray; form: double-stranded DNA, one strand shown; matrix: in vitro; concentration: not given; relative to: not given; direction: higher = stronger binding
Target: Histone acetyltransferase KAT6A, winged helix 2, GST fusion (KAT6A, Homo sapiens, UniProt Q92794, residues 85-181)
Setting: 8-mer, flanks averaged, mean of 2 arrays, mostly near background
Residues (chain): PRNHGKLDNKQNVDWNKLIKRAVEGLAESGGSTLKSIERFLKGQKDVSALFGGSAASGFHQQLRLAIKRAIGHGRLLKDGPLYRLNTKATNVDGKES
Oligonucleotide | E-score
CTAGTGGA | -0.152
TCCACAGA | -0.0977
CCTGAGTA | 0.0789
ATCTTATG | 0.00702
GGTTAACC | 0.103
GCGACCGC | 0.151
AACGCCGC | 0.0457
AAAGGGCG | 0.115
GATTGCTA | -0.065
CTCGACCA | -0.0657
CATAAACC | 0.0231

Further values, each from its own experiment
Molecule | tested on | test | system | setting | how to read | quantity | value
EIF4A3 (Homo sapiens, UniProt P38919) | ACIN1 (Homo sapiens, UniProt Q9UKV3) | cross-linking MS | cell fractions | added: DSSO | – | cross-linked residues | K296 to K1047
PhoQ, residues 284 288 289 292 302 303 SCCLKL | PhoP, residues 12 14 15 18 19 GQALL (Escherichia coli, UniProt P23836) | Sort-seq, measured: YFP reporter | E. coli | PhoQ-PhoP variant library, added: 10 µM Mg2+ | relative to: high Mg2+ state, higher = stronger signaling | fold induction | 9.07
BMS1 (Homo sapiens, UniProt Q14692) | UTP11 (Homo sapiens, UniProt Q9Y3A2) | cross-linking MS | cell fractions | added: DSSO | – | cross-linked residues | K1147 to K26

A few entries again (sample 2):
Oligonucleotide | RBNS enrichment (R)
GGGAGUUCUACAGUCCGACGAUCGCCGCCUUCCUGUGCCAAAUUCAGUGGGGACUCAGUGCCCAGGCCCUGGCCACGAGCUUUGGCCUUGGUCUACCUGCCAGGCCAGGCAAAGCGCCUUUACACAGGCCUCGUGGAAUUCUCGGGUGCCAA | 0.338
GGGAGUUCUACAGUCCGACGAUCUGGGCCACGCCUGGGAGGGGCCCAGCUGGGGUUACUGGCCCCGCAUGAGCCUCGGCCAUCUCUCCCUCCUGCCCUCUGCUUGGGGGACUCAGGGCUCCAUUCUGGAGGGCUGGAAUUCUCGGGUGCCAA | 1.04
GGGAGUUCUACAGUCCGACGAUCCUAUGUCUGCUUACACAGCUUGGACAUGGCUGCUUUCCAUGAAGGAAAUAUAGGGGAGGUGGACUGUAAGGGAUAUAUAACCAGUGUGAAGAACUGCUUCAUAAAAUAUGUGGAAUUCUCGGGUGCCAA | 0.927
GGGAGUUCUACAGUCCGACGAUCUGCUCUGGCUCACGAGUAUUGGAGGACCUGAGCACCUCAGGCCGUGGGUCUGUGUGGGGUGUGUGGGUGUGGAUGUCUGCCUCGCCACAGGUGCCACAGAGGGGCAGGCGUGGAAUUCUCGGGUGCCAA | 0.836
